Measured values collected from several papers.
A part holds a random share of what one study measured. Substitutions count along the parent as printed.

Series 1
Target: Centromere-binding protein 1, full length, N-terminal tag (CBF1, Saccharomyces cerevisiae, UniProt P17106, residues 1-351)
Chain of UniProt P17106 (whole entry, looked up): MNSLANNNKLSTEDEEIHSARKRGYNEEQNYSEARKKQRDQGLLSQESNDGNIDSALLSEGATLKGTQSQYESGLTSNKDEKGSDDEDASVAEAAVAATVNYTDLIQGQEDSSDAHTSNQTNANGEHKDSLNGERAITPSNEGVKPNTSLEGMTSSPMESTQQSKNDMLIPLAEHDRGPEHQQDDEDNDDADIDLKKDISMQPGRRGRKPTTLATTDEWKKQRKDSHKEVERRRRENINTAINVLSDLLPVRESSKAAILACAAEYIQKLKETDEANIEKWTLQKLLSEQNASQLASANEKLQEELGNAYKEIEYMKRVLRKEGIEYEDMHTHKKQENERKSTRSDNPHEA
Technique: protein-binding microarray
Molecule type: double-stranded DNA, one strand shown
Matrix: in vitro
Tested at: 0.8 µM
Setting: whole 60-bp probe, no competitor
Direction: higher = stronger binding
Constant ends, left off below: … GTCTTGATTCGCTTGACGCTGCTG
| Strand | fluorescence intensity [a.u.] |
| --- | --- |
| CCTAACTACTATACACGTGCAACATAGCTTCGTACA | 5310 |
| CTATGAACACCCATTCATCACGTGTAATTGGACTTC | 6430 |
| CTAACGCATCTAGAACAGCTGAGATGAAAGAGGTTC | 549 |
| CTATATATTTCTTTTCATCACGTGCTATAAAAATTC | 20100 |
| CTAGTTACCTCCAGGTGATTGCTGTCTTTATGCTTC | 520 |
| CTAGCAGGCAATAGCCATCACAGCAGTTTAGTATTC | 523 |
| TGTACGAAGCTATCTCACGTTTTTATAGTAGTTAGG | 630 |
| GAAACATGTAATTGTCATCAGCTGTATACTGTTTAG | 579 |
| GAACAACGCCTTTCCAACATGCACACAAAACCATAG | 565 |
| CCTAACTACTATACGCACGAACGATAGCTTCGTACA | 540 |
| GAAGATAATGTCTCACTCGTGCAGTCACATCTCTAG | 566 |
| TGTACGAAGCTATCGCACGCTCATATAGTAGTTAGG | 522 |
| CTACATGCCAATTCGCACGTGACTTGAAACTATTTC | 16800 |
| GAATCAAATAAAGCGCACGATATATACCTATTTTAG | 543 |
| GAAGAAAAAACTTCTCAGCTGACTCCACCATATTAG | 708 |
| CTAAAGGTACTTTTGCATGTGGGCGTCCACAGGTTC | 550 |

Series 2
Target: CCND1, cyclin fold, Cln2 fusion (human)
Technique: yeast growth competition, sequencing
Matrix: yeast
Setting: weak parent motif
Baseline: not given
Direction: higher = stronger binding
Parent: CDC6 docking peptide (human); TLKGRRLVFDNQL
| Variant | normalised enrichment score |
| --- | --- |
| T1V | 0.576 |
| R5K F9L | 0.327 |
| R6K | 0.0257 |
| F9I | 0.124 |
| V8L | 0.562 |
| V8D | 0.99 |
| T1C | -0.0167 |
| F9K | 0.414 |
| D10W | 0.247 |
| V8M | -0.275 |
| D10C | 0.426 |
| L13T | 0.332 |
| L7C | -0.411 |
| L7Y | 0.455 |

Series 3
Target: ABI1, truncated, D143A, DHFR fusion (Arabidopsis thaliana)
Technique: DHFR PCA, deep sequencing
Matrix: yeast
Setting: methotrexate growth selection, single substitutions
Added: (+)-ABA 0 µM
Baseline: wild-type fitted maximum
Direction: higher = stronger binding
Parent: PYL1, truncated, DHFR fusion (Arabidopsis thaliana); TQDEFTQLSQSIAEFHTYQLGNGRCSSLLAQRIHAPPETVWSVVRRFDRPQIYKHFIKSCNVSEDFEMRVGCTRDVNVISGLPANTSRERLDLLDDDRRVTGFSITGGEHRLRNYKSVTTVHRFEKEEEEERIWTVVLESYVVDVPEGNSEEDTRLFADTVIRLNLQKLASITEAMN; partner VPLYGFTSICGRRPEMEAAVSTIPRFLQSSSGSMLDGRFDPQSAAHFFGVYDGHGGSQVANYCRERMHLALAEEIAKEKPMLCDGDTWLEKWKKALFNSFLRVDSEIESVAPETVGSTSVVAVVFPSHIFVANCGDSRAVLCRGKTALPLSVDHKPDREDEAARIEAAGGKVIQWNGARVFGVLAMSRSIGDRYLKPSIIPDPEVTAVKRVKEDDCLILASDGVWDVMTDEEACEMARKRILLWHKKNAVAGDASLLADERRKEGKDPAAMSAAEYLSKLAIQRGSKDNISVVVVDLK
| Variant | relative binding score [%] |
| --- | --- |
| V137P | 1.05 |
| N177G | 31.3 |
| R132F | -3.89 |
| Y53M | -0.487 |
| R88P | -1.82 |
| D144Q | -4 |
| Q51F | -2.19 |
| T86A | 6.55 |
| A30Y | 9.46 |
| S27E | 3.62 |
| D65G | 21.1 |
| E174C | -3.07 |
| P50R | -0.259 |
| C72G | 0.156 |
| A13S | 23.1 |

Series 4
Target: Prothrombin, mature alpha-thrombin (F2, Homo sapiens, UniProt P00734)
Technique: aptamer microarray, sandwich
Molecule type: DNA with 2'F-ANA
Matrix: in vitro
Tested at: 200 nM
Setting: whole 15-mer aptamer, many near background
Added: Cy3 exosite-II aptamer, 400 nM
Direction: higher = stronger binding
Strand: GGTTGGTGTGGTTGG
| Modification | mean fluorescence intensity [a.u.] |
| --- | --- |
| 2'F-ANA at 1 2 4 7 10 11 13 | 48.4 |
| 2'F-ANA at 2 4 6 9 13 15 | 145 |
| 2'F-ANA at 4 5 8 9 | 75.9 |
| 2'F-ANA at 1 3 6 7 9 11 13 15 | 170 |
| 2'F-ANA at 2 3 7 8 10 11 12 13 | 462 |
| 2'F-ANA at 2 4 5 10 11 12 14 | 45.9 |
| 2'F-ANA at 1 2 3 6 14 | 70.4 |
| 2'F-ANA at 1 2 4 5 7 11 14 | 76 |
| 2'F-ANA at 1 4 5 6 7 9 12 13 | 73.1 |
| 2'F-ANA at 3 4 5 6 8 9 10 11 12 13 | 56.8 |
| 2'F-ANA at 2 6 7 8 9 10 12 15 | 161 |
| 2'F-ANA at 1 3 5 6 9 11 13 15 | 55 |
| 2'F-ANA at 1 2 3 8 9 11 14 | 69.2 |
| 2'F-ANA at 2 5 7 10 15 | 46.4 |
| 2'F-ANA at 1 4 5 7 8 9 10 11 12 14 15 | 51.9 |
| 2'F-ANA at 1 2 5 7 9 10 12 13 | 61.8 |
| 2'F-ANA at 1 3 5 7 8 11 12 13 14 15 | 51.1 |

Series 5
Target: Interferon regulatory factor 5, full length, phosphomimetic (IRF5, Homo sapiens, UniProt Q13568-2, residues 1-514, K96S/S451D/S453D/S456D/S462D)
Technique: protein-binding microarray
Molecule type: double-stranded DNA, one strand shown
Matrix: in vitro
Tested at: 250 nM
Setting: 60-bp whole probe
Added: salmon DNA 0.4 mg/ml
Baseline: random background probes
Direction: higher = stronger binding
Constant ends, left off below: GCCTAGCAC … GTCTTGATTCGCTTGACGCTGCTG
| Strand | log fluorescence [z-score] |
| --- | --- |
| GACGATATCAGTATCGAGACGTGCTAG | 3.53 |
| ATAGGACTGCTACTGCTTTAGTGCTAG | -0.317 |
| TGAACTAGCGGGTCTTGCAGTGTGCTA | -0.154 |
| GACGAACTGAGTTTCGCGACGTGCTAG | 1 |
| CACCCACTCTTTCCTCACCATGTGCTA | 0.244 |
| GAGGGACTGGGGTATCGGGACGTGCTA | 0.131 |
| CCTTCTCTAACCTCTCTAATAGTGCTA | 0.326 |
| TTAGATATCGGGTTTCGAATAGTGCTA | 4.23 |
| TCACCTATTTATATGAGACTGTGCTAG | 0.597 |
| TGGGTTGTAGGTTTTCTGAAGGTGCTA | -0.295 |
| CTTAGTTTGTATATATTTTAGTGCTAG | 0.784 |
| TTAGTACTGAGTCTCGATTAGTGCTAG | 0.534 |
| ATAGATTTCAGTTCCGATTAGTGCTAG | 2.54 |
| TTCCCTTTCTCAACCTCCAGGTGCTAG | 1.41 |
| TTAGGAGTGCTTATCCTTTAGTGCTAG | -0.369 |
| TTACGTATCCTTCTCCTTTAGTGCTAG | 1.04 |
| TCAGCTTTCCTTTATGTACTGTGCTAG | 1.33 |

Series 6
Target: Sal-like protein 4, full length isoform A (SALL4, Homo sapiens, UniProt Q9UJQ4, residues 1-1053)
Chain of UniProt Q9UJQ4 (whole entry, looked up): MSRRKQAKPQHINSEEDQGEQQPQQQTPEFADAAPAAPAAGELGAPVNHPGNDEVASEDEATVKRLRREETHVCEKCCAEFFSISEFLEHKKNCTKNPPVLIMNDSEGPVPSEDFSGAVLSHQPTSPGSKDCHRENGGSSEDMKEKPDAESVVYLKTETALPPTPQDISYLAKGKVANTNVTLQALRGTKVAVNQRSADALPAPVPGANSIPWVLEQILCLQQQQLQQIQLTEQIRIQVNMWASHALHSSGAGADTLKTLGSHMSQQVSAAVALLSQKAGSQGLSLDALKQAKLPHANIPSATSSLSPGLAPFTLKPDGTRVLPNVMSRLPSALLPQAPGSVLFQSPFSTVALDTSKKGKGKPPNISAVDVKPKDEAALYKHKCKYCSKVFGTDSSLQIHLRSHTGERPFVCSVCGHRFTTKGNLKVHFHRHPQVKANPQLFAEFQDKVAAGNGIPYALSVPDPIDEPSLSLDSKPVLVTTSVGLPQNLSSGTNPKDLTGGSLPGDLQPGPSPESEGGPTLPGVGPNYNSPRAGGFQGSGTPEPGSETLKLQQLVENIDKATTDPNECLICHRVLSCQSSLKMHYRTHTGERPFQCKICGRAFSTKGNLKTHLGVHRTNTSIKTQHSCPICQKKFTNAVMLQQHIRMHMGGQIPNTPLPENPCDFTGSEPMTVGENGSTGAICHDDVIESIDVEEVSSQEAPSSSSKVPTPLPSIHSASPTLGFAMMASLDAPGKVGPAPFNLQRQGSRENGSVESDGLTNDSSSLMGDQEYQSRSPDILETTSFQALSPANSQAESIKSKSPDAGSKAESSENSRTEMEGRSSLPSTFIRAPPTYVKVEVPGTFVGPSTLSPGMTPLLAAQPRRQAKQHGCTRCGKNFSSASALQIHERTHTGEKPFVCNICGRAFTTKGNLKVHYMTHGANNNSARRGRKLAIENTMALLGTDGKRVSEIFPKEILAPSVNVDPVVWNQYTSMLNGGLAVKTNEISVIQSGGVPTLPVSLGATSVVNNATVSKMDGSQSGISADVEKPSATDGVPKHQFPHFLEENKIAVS
Technique: universal PBM
Molecule type: double-stranded DNA, one strand shown
Matrix: in vitro
Tested at: 600 nM
Setting: 8-mer, flanks averaged, mean of replicates
Direction: higher = stronger binding
| Strand | E-score |
| --- | --- |
| CATGCCCA | -0.328 |
| CCCTTCGA | -0.293 |
| ATGAAGCA | 0.0697 |
| GCTACATA | 0.236 |
| CATTTTAA | 0.286 |
| GCTCCCAC | -0.265 |
| AGAGATGG | 0.067 |
| CTTCGACC | -0.22 |
| TCAACAGA | 0.0889 |
| ATACTAAT | 0.342 |
| ACGACAAA | 0.208 |
| GTACTAAC | 0.0938 |
| ACTCGTCG | -0.1 |
| AAGCGATG | 0.00382 |
| CTAGCCTA | -0.105 |
| GCGCTTTA | 0.0294 |
| AACCCACC | -0.224 |
| GCAAAGCA | -0.0347 |
| CCCATCGA | -0.0495 |
| CCAGTGAG | -0.283 |

Series 7
Target: ATF3, bZIP domain (human)
Technique: DHFR protein complementation
Matrix: yeast
Setting: single substitutions, most at no-binding floor
Baseline: wild-type JUN-FOS pair
Direction: higher = stronger binding
Parent: JUN, bZIP domain (human); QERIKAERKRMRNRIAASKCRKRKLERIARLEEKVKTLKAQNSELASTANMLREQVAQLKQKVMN; partner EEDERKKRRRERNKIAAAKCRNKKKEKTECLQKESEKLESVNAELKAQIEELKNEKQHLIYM
| Variant | binding fitness |
| --- | --- |
| S47L | -0.102 natural log |
| L38P | -1.35 natural log |
| A46I | -0.061 natural log |
| V35F | -0.528 natural log |
| A49P | -1.55 natural log |
| E33H | -0.201 natural log |
| L59G | -1.37 natural log |
| L45N | -1.34 natural log |
| S43D | -0.0878 natural log |
| K39D | -0.678 natural log |
| Q41D | -0.375 natural log |

Series 8
Target: Histone acetyltransferase KAT6A, winged helix 2, GST fusion (KAT6A, Homo sapiens, UniProt Q92794, residues 85-181)
Technique: protein binding microarray
Molecule type: double-stranded DNA, one strand shown
Matrix: in vitro
Tested at: not given
Setting: 8-mer, flanks averaged, mean of 2 arrays, mostly near background
Baseline: not given
Direction: higher = stronger binding
Target sequence (chain): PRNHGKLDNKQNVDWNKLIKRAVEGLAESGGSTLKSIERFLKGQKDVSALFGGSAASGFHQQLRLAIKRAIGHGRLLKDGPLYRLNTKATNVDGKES
| Strand | E-score |
| --- | --- |
| CTGCTACC | 0.189 |
| ACCATTGA | -0.118 |
| GTCGTAGA | -0.0197 |
| CAATTAGG | 0.0929 |
| ACTGAGGA | 0.108 |
| GGGCGACA | -0.0816 |
| CCTATCCC | -0.0871 |
| CTGTGGCA | 0.0466 |
| AAAACGTC | -0.0524 |
| CTATTGAG | -0.0742 |
| CCCACGGG | 0.163 |
| CATAGGCC | 0.0168 |
| AGGCCTTA | -0.217 |
| GGATAACA | -0.175 |
| AGTCGGCC | -0.0186 |
| AGATTCCC | -0.122 |
| CTAGAGGC | -0.239 |
| AATCACGT | -0.0745 |

A few entries again (series 3):
| Variant | relative binding score [%] |
| --- | --- |
| R88P | -1.82 |
| A13S | 23.1 |
| N177G | 31.3 |
| Q51F | -2.19 |
| C72G | 0.156 |
| A30Y | 9.46 |
| D65G | 21.1 |
| E174C | -3.07 |
| R132F | -3.89 |
| Y53M | -0.487 |
